Measured values pooled from the literature.
Each numbered part is a random draw from the data of one study; scales do not carry over between parts.

Study 1
Target: Interferon regulatory factor 5, full length, phosphomimetic (IRF5, Homo sapiens, UniProt Q13568-2, residues 1-514, K96S/S451D/S453D/S456D/S462D)
Technique: protein-binding microarray
Molecule type: double-stranded DNA, one strand shown
Sample: in vitro
Tested at: 250 nM
Notes: 60-bp whole probe
Added: salmon DNA 0.4 mg/ml
Baseline: random background probes
Direction: higher = stronger binding
All sequences stand within: GCCTAGCAC … GTCTTGATTCGCTTGACGCTGCTG
`GATGGTTTCGGACTGGGGACGTGCTAG` has a log fluorescence of 4.7 z-score.
The log fluorescence of `GACGGTTTCGTGTTTCGGGACGTGCTA` is reported as 5.25 z-score.
`GTTTCATTCCTGATCTCTGGGTGCTAG` has a log fluorescence of 3.02 z-score.
The log fluorescence of `TTAGGTATCGGGTATCGTTTAGTGCTA` is reported as 5.46 z-score.
`TTAGATTTCAGTCTCGATGAGTGCTAG` has a log fluorescence of 2.36 z-score.
The log fluorescence of `GACGGACTGTGGACTGGGGACGTGCTA` is reported as -0.675 z-score.
The log fluorescence of `TCTAATCTCACTCTGTCCCTGTGCTAG` is reported as 0.608 z-score.
`TTAGGACTGCGTCTCCTTTAGTGCTAG` gave a log fluorescence of -0.48 z-score.

Study 2
Target: PABPC1L2, full length, GST fusion (mouse, UniProt A0ABA7IW68)
Technique: RNAcompete
Molecule type: RNA
Sample: in vitro
Tested at: 20 nM
Notes: 7-mer, probes averaged, single round
Baseline: mean of 7-mers
Direction: higher = stronger binding
Residues (chain): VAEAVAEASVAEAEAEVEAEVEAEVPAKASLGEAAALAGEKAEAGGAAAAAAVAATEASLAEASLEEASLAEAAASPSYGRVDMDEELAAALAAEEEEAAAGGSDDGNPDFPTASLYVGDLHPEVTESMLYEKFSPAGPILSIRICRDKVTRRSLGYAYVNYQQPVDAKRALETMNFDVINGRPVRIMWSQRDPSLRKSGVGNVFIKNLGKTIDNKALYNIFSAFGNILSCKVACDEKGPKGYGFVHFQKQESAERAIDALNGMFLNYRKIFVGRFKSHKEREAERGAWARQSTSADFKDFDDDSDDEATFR
`AUCAUAG` gave a 7-mer Z-score of 0.0678.
`UCUAUCG` gave a 7-mer Z-score of -0.262.
`UAACAGU` gave a 7-mer Z-score of -0.05.
The 7-mer Z-score of `UGGCCCG` is reported as -0.162.
`UACAGUU` has a 7-mer Z-score of -0.304.
`CCAGAUA` gave a 7-mer Z-score of -0.0156.
With `CUCUCGU` the 7-mer Z-score was -0.476.
For `AAGAUGU`, the 7-mer Z-score was 0.0986.

Study 3
Target: Replicase polyprotein 1ab, nsp13 helicase (rep, Severe acute respiratory syndrome coronavirus 2, UniProt P0DTD1)
Action: inhibitor
Tested at: 20 µM
For [N-]=[N+]=N[C@]1(CO)O[C@@H](n2ccc(N)nc2=O)[C@@H](O)[C@@H]1O, the inhibition was -0.36%.
N#C/C(=C(/N)Sc1ccc(N)cc1)c1ccccc1C(F)(F)F gave an inhibition of 4.18%.
Cc1ccc(Sc2ccccc2N2CCNCC2)c(C)c1 gave an inhibition of 1.43%.
With Cc1oc2ccccc2c1CNC(=O)NCc1cccs1 the inhibition was 6.81%.
With CCCCCCCCCCCC(=O)N(CCO)CCO the inhibition was -0.4%.
The inhibition of Cc1cccc(Nc2cc(Cl)nc(SCC(=O)O)n2)c1C is reported as 0.77%.
With COc1cc(C)c(/C=C/C(C)=C/C=C/C(C)=C/C(=O)O)c(C)c1C the inhibition was 6.3%.
C#CCC(Cc1cnc2nc(N)nc(N)c2n1)c1ccc(C(=O)N[C@@H](CCC(=O)O)C(=O)O)cc1 (stereo partly drawn) has an inhibition of 3.38%.
The inhibition of CCCCCCCCCCCCCCCC=O is reported as 0.73%.
c1ccc2c(c1)CN1CCCC1=N2 gave an inhibition of 2.17%.
The inhibition of O=C1[C@H]2CCCC[C@H]2C(=O)N1CCCCN1CCN(c2nsc3ccccc23)CC1 is reported as 6.06%.
CC(COc1ccccc1)N(CCCl)Cc1ccccc1 (stereo not drawn) gave an inhibition of 18.9%.
With COc1ccc(S(=O)(=O)Nc2nc(-c3cccc([N+](=O)[O-])c3)cs2)cc1OC the inhibition was 9.68%.
OCC(O)CN1CCN(c2ccccc2)CC1 (stereo not drawn) has an inhibition of 0.68%.
The inhibition of CC(Cc1ccccc1)(NC(=O)CN)c1ccccc1 (stereo not drawn) is reported as -3.07%.
The inhibition of O=C(Nc1ccncc1)c1cc([N+](=O)[O-])ccc1Cl is reported as 3.05%.
O=C(O)/C=C1\CCCc2ccccc2C1O (stereo not drawn) has an inhibition of 3.4%.
Cc1ccc(NC(=O)c2cccc(N(C)C)c2)cc1NC(=O)c1ccc(O)cc1 gave an inhibition of 4.17%.
CC[C@H](CC[C@@H](C)[C@H]1CC[C@H]2[C@@H]3CC=C4C[C@@H](O)CC[C@]4(C)[C@H]3CC[C@]12C)C(C)C has an inhibition of 11.7%.
With Cc1cc(NC(=O)NCCN2CCC(O)(Cc3ccccc3)CC2)c2ccccc2n1 the inhibition was 0.72%.
With CCCCc1oc2ccc(NS(C)(=O)=O)cc2c1C(=O)c1ccc(OCCCN(CCCC)CCCC)cc1 the inhibition was 1.47%.
CCc1nc(C)ccc1O has an inhibition of 4.93%.
For O=c1cc(-c2ccccc2)oc2cc(O)c(O)c(O)c12, the inhibition was 70%.
The inhibition of Nc1ncc(Cc2ccc(Br)cc2)s1 is reported as 2.64%.
With Cc1ccccc1N1CCN(S(=O)(=O)C[C@]23CC[C@H](C[C@@H]2NC(=O)[C@@H](N)CCS(C)(=O)=O)C3(C)C)CC1 the inhibition was 0.3%.

Study 4
Target: Sal-like protein 4, full length isoform A (SALL4, Homo sapiens, UniProt Q9UJQ4, residues 1-1053)
Sequence of UniProt Q9UJQ4 (whole entry, looked up): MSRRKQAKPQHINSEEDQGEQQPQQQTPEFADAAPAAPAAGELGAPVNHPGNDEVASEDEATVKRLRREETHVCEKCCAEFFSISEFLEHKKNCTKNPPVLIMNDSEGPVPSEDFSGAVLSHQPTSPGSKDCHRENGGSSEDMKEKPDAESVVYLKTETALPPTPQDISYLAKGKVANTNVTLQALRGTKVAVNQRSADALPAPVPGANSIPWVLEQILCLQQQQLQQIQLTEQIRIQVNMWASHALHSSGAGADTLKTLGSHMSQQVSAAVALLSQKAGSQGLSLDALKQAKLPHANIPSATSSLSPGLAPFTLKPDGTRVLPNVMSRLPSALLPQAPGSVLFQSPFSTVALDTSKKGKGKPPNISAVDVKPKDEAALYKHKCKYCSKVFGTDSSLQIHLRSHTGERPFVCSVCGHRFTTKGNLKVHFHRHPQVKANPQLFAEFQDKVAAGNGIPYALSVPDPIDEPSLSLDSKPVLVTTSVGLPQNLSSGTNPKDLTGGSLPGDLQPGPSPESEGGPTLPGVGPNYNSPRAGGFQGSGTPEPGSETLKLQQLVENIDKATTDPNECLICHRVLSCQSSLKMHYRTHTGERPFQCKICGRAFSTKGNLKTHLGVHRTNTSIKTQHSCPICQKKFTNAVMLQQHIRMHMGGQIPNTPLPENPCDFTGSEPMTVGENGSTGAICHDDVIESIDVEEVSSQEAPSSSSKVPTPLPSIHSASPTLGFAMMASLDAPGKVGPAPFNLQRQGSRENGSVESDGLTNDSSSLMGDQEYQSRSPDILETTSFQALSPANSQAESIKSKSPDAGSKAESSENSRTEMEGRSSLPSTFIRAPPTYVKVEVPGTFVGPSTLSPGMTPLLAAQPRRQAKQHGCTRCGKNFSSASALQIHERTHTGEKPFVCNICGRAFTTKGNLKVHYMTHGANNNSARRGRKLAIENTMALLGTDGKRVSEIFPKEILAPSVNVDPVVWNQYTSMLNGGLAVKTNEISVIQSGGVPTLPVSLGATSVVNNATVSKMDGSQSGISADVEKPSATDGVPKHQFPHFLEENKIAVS
Technique: universal PBM
Molecule type: double-stranded DNA, one strand shown
Sample: in vitro
Tested at: 600 nM
Notes: 8-mer, flanks averaged, mean of replicates
Direction: higher = stronger binding
With `GAGTCTAC` the E-score was 0.0346.
With `ATGAGGGC` the E-score was -0.166.
`CGAAGATA` gave an E-score of 0.148.
With `ATTGGGCA` the E-score was -0.0289.
`CACTGGTA` has an E-score of 0.0265.
`ACTCTACA` gave an E-score of -0.0605.
The E-score of `ATGGTCGG` is reported as -0.0955.
`ATTTTTGC` gave an E-score of 0.343.

Study 5
Cell line: HEK-293T
Effect on: pseudovirus infection
Organism: VSV pseudotyped with SARS-CoV-2 spike
Tested at: 10 µM
Time: 16 h
Baseline: vehicle-treated
Nc1nc(NC2CC2)c2ncn([C@H]3C=C[C@@H](CO)C3)c2n1 gave a GFP-positive cells of 69.2%.
CC(=O)OCC(=O)[C@@]12OC(C)(C)O[C@@H]1C[C@H]1[C@@H]3C[C@H](F)C4=CC(=O)C=C[C@]4(C)[C@@]3(F)[C@@H](O)C[C@@]12C gave a GFP-positive cells of 77.6%.
With N=C(N)c1ccc(OCCCCCOc2ccc(C(=N)N)cc2)cc1 the GFP-positive cells was 77.7%.
With CCCCCCCCCCCCCCCC[N+](C)(C)CCN(Cc1ccc(OC)cc1)c1ncccn1 the GFP-positive cells was 55.8%.

Single results of other studies
For Nc1nc(=S)c2ncn([C@@H]3O[C@H](CO)[C@@H](O)[C@H]3O)c2[nH]1, the IC50 was 1450 nM (Replicase polyprotein 1ab, main protease (rep, Severe acute respiratory syndrome coronavirus 2, UniProt P0DTD1); fluorogenic substrate cleavage, inhibitor; 60 min preincubation, 37 °C, added: 1 mM DTT).

Excerpt of the above (study 3):
With Cc1cc(NC(=O)NCCN2CCC(O)(Cc3ccccc3)CC2)c2ccccc2n1 the inhibition was 0.72%.
With CCCCc1oc2ccc(NS(C)(=O)=O)cc2c1C(=O)c1ccc(OCCCN(CCCC)CCCC)cc1 the inhibition was 1.47%.
CCc1nc(C)ccc1O has an inhibition of 4.93%.
For O=c1cc(-c2ccccc2)oc2cc(O)c(O)c(O)c12, the inhibition was 70%.
The inhibition of Nc1ncc(Cc2ccc(Br)cc2)s1 is reported as 2.64%.
